{"data": "Experimental data collected from several papers", "note": "Compare with care: the assays were run in different laboratories. Several values in a cell are separate wells, animals, samples, runs or records. ± gives the spread as reported."}
{"Compound": "O=C1Nc2cc3[nH]nc(-c4ccncc4)c3cc2CN1Cc1ccccc1", "assay": "CTCAE v4.03", "system": "human, relapsed or refractory advanced solid tumours", "setting": "intravenous, 3.6 mg/kg", "endpoint": "patients with retinal detachment", "result": "0%"}
{"Compound": "CC(C)CC(=O)OC[C@H]1O[C@@](C#N)(c2ccc3c(N)ncnn23)[C@H](O)[C@@H]1O", "system": "dog plasma", "setting": "0.9 to 90 µM", "endpoint": "fraction bound", "result": 0.7}
{"Compound": "O=S(=O)(Nc1ccccc1)c1ccc(NC(=S)Nc2ccccc2)cc1", "assay": "refers to: ALT", "system": "female mouse, blood", "setting": "oral, 80 mg/kg daily, 14 days", "endpoint": "serum enzyme activity", "result": "65.5 U/L"}
{"Compound": "C=C(CN(C(=O)c1c(C(F)F)nn(C)c1F)C1CC1)c1ccc(Cl)cc1Cl", "assay": "static acute toxicity test", "system": "zebrafish (Brachydanio rerio)", "setting": "0.578 mg a.i./L, 72 h", "endpoint": "mortality", "result": "0%"}
{"Compound": "CCCCCCCCCCCCCCCC(=O)N[C@@H](CCC(=O)NCCCC[C@H](NC(=O)[C@H](CC(=O)O)NC(=O)[C@H](CO)NC(=O)[C@@H](NC(=O)[C@H](Cc1ccccc1)NC(=O)[C@@H](NC(=O)CNC(=O)[C@H](CCC(N)=O)NC(=O)[C@H](CO)NC(=O)[C@@H](N)Cc1c[nH]cn1)[C@@H](C)O)[C@@H](C)O)C(=O)N[C@@H](CO)C(=O)N[C@@H](CCC(=O)O)C(=O)N[C@@H](Cc1ccc(O)cc1)C(=O)N[C@@H](CC(C)C)C(=O)N[C@@H](CC(=O)O)C(=O)N[C@@H](CO)C(=O)N[C@@H](CCC(=O)O)C(=O)N[C@@H](CCCNC(=N)N)C(=O)N[C@@H](C)C(=O)N[C@@H](CCCNC(=N)N)C(=O)N[C@@H](CC(=O)O)C(=O)N[C@@H](Cc1ccccc1)C(=O)N[C@H](C(=O)N[C@@H](C)C(=O)N[C@@H](Cc1c[nH]c2ccccc12)C(=O)N[C@@H](CC(C)C)C(=O)N[C@@H](CCC(=O)O)C(=O)N[C@@H](C)C(=O)NCC(=O)NCC(=O)O)C(C)C)C(=O)O", "assay": "refers to: Vomiting", "system": "humans CrCl 45 to 60 mL/min", "setting": "subcutaneous, 100 µg single dose", "endpoint": "treatment-related adverse events", "result": "42.9%"}
{"Compound": "COc1ccnc(C(=O)N[C@H]2COC(=O)[C@H](Cc3ccccc3)[C@@H](OC(=O)C(C)C)[C@H](C)OC2=O)c1OCOC(=O)C(C)C", "assay": "refers to: urine, rinse and air", "system": "mouse, male", "setting": "oral", "endpoint": "oral absorption", "result": "12%"}
{"Compound": "CN[C@H]1CC[C@@H](c2ccc(Cl)c(Cl)c2)c2ccccc21", "system": "CD-1 mouse, male, plasma", "setting": "intraperitoneal, 1 mg/kg", "endpoint": "AUC(0-inf)", "result": "62.2 ng·h/mL"}
{"Compound": "CC[C@H](C)[C@H](NC(=O)[C@H](Cc1c[nH]cn1)NC(=O)[C@H](CO)NC(=O)CNC(=O)[C@H](CCC(=O)O)NC(=O)[C@H](CCSC)NC(=O)[C@@H](NC(=O)[C@H](Cc1c[nH]cn1)NC(=O)[C@H](CO)NC(=O)[C@H](CCSC)NC(=O)[C@H](C)NC(=O)[C@H](CC(N)=O)NC(C)=O)C(C)C)C(=O)N[C@@H](CC(N)=O)C(=O)N[C@@H](Cc1c[nH]c2ccccc12)C(=O)N[C@@H](CC(=O)O)C(=O)N[C@@H](C)C(N)=O", "assay": "circular dichroism", "system": "water with 5% DMSO", "setting": "500 µM, 18 °C", "endpoint": "alpha-helix content", "result": "35%"}
{"Compound": "Cc1ccc(F)c2cc(C(=O)N[C@@H]3CCC[C@H](N4CC[C@H](N(C)S(C)(=O)=O)C4)C3)[nH]c12", "system": "CD1 mouse", "setting": "oral, 100 mg/kg", "endpoint": "CL/F", "result": "87 mL/min/kg"}
{"Compound": "C[C@]1(O)C[C@@](N)(c2ccc(-c3nc4n(c3-c3ccccc3)COc3ccncc3-4)cc2)C1", "system": "human, advanced or metastatic solid tumours", "setting": "once daily, dose escalation total, any grade", "endpoint": "patients with Hyperglycemia TEAE", "result": "22.2%"}
{"Compound": "CN1C(=O)[C@@H](NC(=O)c2nnc(Cc3ccccc3)[nH]2)COc2cccnc21", "assay": "phase I multiple ascending dose", "system": "human, male and female", "setting": "oral, 200 mg, 14 days", "endpoint": "participants with TEAE leading to death", "result": "0%"}
{"Compound": "CO[C@H]1C[C@@H]2CC[C@@H](C)[C@@](O)(O2)C(=O)C(=O)N2CCCC[C@H]2C(=O)O[C@H]([C@H](C)C[C@@H]2CC[C@@H](OC(=O)NCCOCCOCCOCCOCCOCCOCCOCCOCCC(=O)N3CCc4cc(Cn5nc(-c6ccc7oc(N)nc7c6)c6c(N)ncnc65)ccc4C3)[C@H](OC)C2)C[C@@H](O)[C@H](C)/C=C(\\C)[C@@H](O)[C@@H](OC)C(=O)[C@H](C)C[C@H](C)/C=C/C=C/C=C/1C", "assay": "phase 1 dose escalation, refers to: fatigue", "system": "advanced solid tumour patients", "setting": "intravenous, 10 mg weekly, any grade", "endpoint": "TRAE incidence", "result": "50%"}
{"Compound": "[2H]C([2H])([18F])[C@]([2H])(N)C(=O)O", "assay": "PET", "system": "athymic nude mice, U-87 MG, muscle", "setting": "dose not given, 15 min post-injection", "endpoint": "tissue uptake", "result": "1.45 ± 0.22 %ID/cc"}
{"Compound": "O=C(O)CCCOc1ccc(F)cc1-c1cc(-c2ccccc2C(F)(F)F)n(-c2ccccc2)n1", "assay": "refers to: β-glb", "system": "Crl:CD(SD) rats, male, serum", "setting": "iv, 25 µg/kg, 14 days", "endpoint": "serum protein fraction", "result": "15.4 ± 1.6%"}
{"Compound": "CC(C)(C)c1cc(-n2nc3ccccc3n2)c(O)c(C(C)(C)C)c1", "assay": "exposure assessment", "system": "human, age 16-21 years", "setting": "concentration not given, spray sunscreen, 95th percentile", "endpoint": "daily dermal uptake, percentile", "result": "14.2 ng/kg body weight/day"}
{"Compound": "NC(=O)[C@H]1CCN(c2ncnc(N)c2F)C[C@@H]1N1CCC[C@@H](Nc2cc(Cl)cc(C(F)(F)F)c2)C1=O", "system": "B-cell malignancy patients", "setting": "oral, 82 mg twice daily, dose", "endpoint": "grade ≥3 leukocytosis", "result": "0%"}
{"Compound": "COc1ccc(-c2c(-c3ccc(C#N)c(F)c3)nc(N3CCC(N)CC3)n(C)c2=O)cc1F", "assay": "refers to: Constipation", "system": "relapsed/refractory marginal zone lymphoma patients", "setting": "oral, 60 mg, any grade, dose expansion", "endpoint": "treatment-related adverse event incidence", "result": "0%"}
{"Compound": "C[C@H]1CN(C(=O)CC#N)[C@]12CCN(c1ncnc3[nH]ccc13)C2", "system": "rat male", "setting": "oral, 3 mg/kg repeated daily, 6 months, repeated-dose toxicity study", "endpoint": "AUC at NOAEL", "result": "1190 ng·h/mL"}
{"Compound": "Cn1cc(-c2nc(N[C@@H]3CCCC[C@@H]3N)c(F)c3c2C(=O)NC3)cn1", "assay": "any bleeding", "system": "patients with relapsed or refractory AML", "setting": "oral, 140 mg once daily", "endpoint": "adverse events", "result": "60%"}
{"Compound": "N=c1c2c(-c3ccccc3)c(-c3ccccc3)n(Cc3ccccc3)c2ncn1[C@H]1CC[C@H](O)CC1", "assay": "equilibrium dialysis", "system": "plasma, mouse, CD-1, pooled", "endpoint": "fu", "result": 0.0101}
{"Compound": "O=S(=O)([O-])C(F)(F)C(F)(F)C(F)(F)C(F)(F)C(F)(F)C(F)(F)C(F)(F)C(F)(F)F.[K+]", "assay": "RT-qPCR, refers to: Cyp2b10", "system": "EtOH-fed mice, liver", "setting": "dose not given", "scale": "baseline: efavirenz", "endpoint": "mRNA level", "result": "increased"}
{"Compound": "CC(=O)c1c(C)c2cnc(Nc3ccc(C4CCN(CCS(C)(=O)=O)CC4)cn3)nc2n(C2CCCC2)c1=O", "system": "HR+/HER2- advanced breast cancer patients", "setting": "oral, dose not given, grade 3/4,, total", "endpoint": "patients with GGT increased", "result": "2.5%"}
{"Compound": "Cn1ncc(-c2nc(N[C@H]3CC[C@H](N)CC3)ncc2Cl)c1CC1CC1", "assay": "phase I dose escalation", "system": "human patients", "setting": "oral, dose not given, treatment-related adverse events", "endpoint": "oral pain incidence", "result": "12.9%"}
{"Compound": "C=CCNc1c(O)cc2c(O)c1C[C@@H](C)C[C@H](OC)[C@H](O)[C@@H](C)/C=C(\\C)[C@H](OC(N)=O)[C@@H](OC)/C=C\\C=C(/C)C(=O)N2", "system": "unresectable or metastatic STS, GIST, other", "setting": "intravenous, 150 mg/m^2", "endpoint": "patients with myalgia TEAE", "result": "33%"}
{"Compound": "C=CC(=O)N1CC[C@H](n2nc(C#Cc3cc(OC)cc(OC)c3)c3c(N)ncnc32)C1", "system": "patients with advanced solid tumours", "setting": "oral, dose not given, Malaise, any grade, QD, all patients", "endpoint": "adverse drug reaction incidence", "result": "11.6%"}
{"Compound": "CC(C)[C@H](O)C(=O)N[C@H]1Cc2ccc3c(c2)[C@]2(C4=C(c5nc(CO)co5)N=C(O4)[C@H](C(C)(C)C)NC1=O)c1cc(F)ccc1N[C@@H]2O3", "system": "NSG mice, heart", "setting": "intravenous, 10 mg/kg, single dose at MTD, added: paclitaxel 40 mg/kg", "endpoint": "AUC(0-t)", "result": "1210 ng·h/mL"}
{"Compound": "Oc1ccc(Cl)c(-c2cc(Cl)c(Cl)cc2Cl)c1Cl", "assay": "enantioselective gas chromatography", "system": "racemized sample", "setting": "column temperature 170 °C", "endpoint": "enantiomeric fraction", "result": 0.5}
{"Compound": "C1=Cc2nc1cc1ccc([n-]1)c(C1CC1)c1nc(cc3ccc([n-]3)c2C2CC2)C=C1.CC(=O)[O-].[Mn+3]", "assay": "LC-MS/MS", "system": "Sprague-Dawley rat, plasma", "setting": "oral gavage, dose not given, 240 min, individual rat Rat2", "endpoint": "plasma concentration", "result": "202 ng/mL"}
{"Compound": "C[C@]1(CO)Cc2ncn(-c3ccc(C#N)c(Cl)c3)c2C(=O)O1", "system": "human", "setting": "all doses, European multiple ascending dose", "endpoint": "drug-related urine abnormality", "result": "2.2%"}
{"Compound": "COc1ncccc1-c1cnn2ccc(N3CCN(C(=O)OC(C)C)CC3)nc12", "system": "mouse nerve ligation model, brain", "setting": "oral, 3 mg/kg, 120 min after last dose, repeat dosing day 2", "endpoint": "drug concentration", "result": "2800 nM"}
{"Compound": "O=C(Nc1ccccc1)C1CCN(C(=O)Oc2cccnc2)CC1", "assay": "refers to: musculoskeletal disorders", "system": "healthy women", "setting": "oral, 20 mg, 7 days", "endpoint": "subjects with adverse event", "result": "21.4%"}
{"Compound": "COc1cc2c(Oc3ccc4[nH]c(C)cc4c3F)ccnc2cc1OCC1(N)CC1", "system": "paediatric recurrent refractory sarcoma", "setting": "concentration not given, whole group", "endpoint": "grade 1 or 2 Neutropenia", "result": "11.8%"}
{"Compound": "CC(C)C[C@H](NC(=O)[C@H](CCCCN)NC(=O)OCC1c2ccccc2-c2ccccc21)C(=O)N[C@H](C(=O)N[C@@H](Cc1ccccc1)C(=O)N[C@@H](Cc1ccccc1)C(=O)N[C@@H](CCCCN)C(=O)NCC(=O)N[C@@H](Cc1ccccc1)C(=O)N[C@@H](C)C(=O)N[C@@H](Cc1c[nH]c2ccccc12)C(=O)N[C@@H](CC(N)=O)C(=O)N[C@H](C(=O)N[C@H]1CSSC[C@@H](C(=O)N[C@@H](Cc2c[nH]cn2)C(=O)N[C@@H](CCCNC(=N)N)C(=O)N[C@@H](CCCNC(=N)N)C(=O)N[C@@H](C)C(=O)N[C@@H](CC(N)=O)C(N)=O)NC(=O)[C@H](C(C)C)NC(=O)[C@H](CCCNC(=N)N)NC(=O)[C@H](C(C)C)NC(=O)CNC(=O)[C@H](CC(N)=O)NC(=O)[C@H](CCCNC(=N)N)NC(=O)[C@H](Cc2ccc(O)cc2)NC(=O)[C@H](C(C)C)NC1=O)C(C)C)C(C)C", "system": "ICR mice, blood", "setting": "intraperitoneal, 5 mg/kg, day 5", "endpoint": "plateletcrit", "result": "0.03%"}
{"Compound": "COc1cccc(Oc2ccccc2NC(=O)CNC(=O)c2cccc3ccccc23)c1", "system": "esterase-deficient SCID mice, male, blood", "setting": "oral, 100 mg/kg/day, 14 days, toxicity study", "scale": "baseline: white cells", "endpoint": "basophils", "result": "1.1% and 2.2% and 0%"}
{"Compound": "Clc1ccc(-c2ccccc2)cc1", "system": "Sprague-Dawley rats, female, serum", "setting": "inhalation, 23 µg/rat, 1 h after exposure", "endpoint": "albumin", "result": "3 ± 0.2 g/dL"}
{"Compound": "CC(C)Nc1ccnc(Nc2cccc(-c3cccnc3)c2)n1", "assay": "refers to: sodium", "system": "mouse, blood", "setting": "intraperitoneal, 10 mg/kg", "endpoint": "blood chemistry", "result": "159 mmol/L"}
{"Compound": "CCCCCOc1ccc(-c2ccc(-c3ccc(C(=O)N[C@H]4C[C@@H](O)[C@@H](OCC[N+](C)(C)C)NC(=O)[C@@H]5[C@@H](O)[C@@H](C)CN5C(=O)[C@H]([C@@H](C)O)NC(=O)[C@H]([C@H](O)[C@@H](O)c5ccc(O)cc5)NC(=O)[C@@H]5C[C@@H](O)CN5C(=O)[C@H]([C@@H](C)O)NC4=O)cc3)cc2)cc1", "system": "adult ICU patients, mITT, serum", "setting": "dose not given, day 14", "endpoint": "alanine aminotransferase", "result": "20.5 U/L"}
